Assay results pooled from the literature.
Numbered parts are unrelated; each lists some results of a single study.

Set 1 — technique: RNA Bind-n-Seq; molecule type: RNA; matrix: in vitro; tested at: 20 nM; notes: 6-mer, flanks averaged, single round; together with: 150 mM KCl; reference: input library; direction: higher = stronger binding; quantity: 6-mer enrichment (R)
Target: TAR DNA-binding protein 43, full length, His tag (TARDBP, Homo sapiens, UniProt Q13148, residues 1-414)
CUGCAC: 0.675
GUCGUC: 0.787
UCUCGU: 0.574
GACAGA: 0.964
GAGCUU: 0.747

Set 2 — technique: RNA Bind-n-Seq; molecule type: RNA; matrix: in vitro; tested at: 365 nM; reference: no-protein control; direction: higher = stronger binding; quantity: RBNS enrichment (R)
Target: RNA binding protein fox-1 homolog 2, RRM domain, GST-SBP tag (RBFOX2, Homo sapiens, UniProt O43251-10, residues 100-194)
Notes: natural RNA segment, single round, ends assumed
Constant ends, left off below: GGGAGUUCUACAGUCCGACGAUC … UGGAAUUCUCGGGUGCCAA
Construct (chain): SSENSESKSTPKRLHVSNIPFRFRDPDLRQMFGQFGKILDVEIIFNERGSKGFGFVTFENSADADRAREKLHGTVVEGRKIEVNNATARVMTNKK
UAUAUGAUAUGGUAUGAUGCUUAUGGUCUGCUAUGAGCAUUCCUGGGCAUACCACAUAACUAGAUGCAAGAACCUUGGGGUAGCAUUCUGUAUUUUUAAAUAUGUUUUAA: 0.733
CUAUCCCGUGAGUGGAUUGUGAGAAAUUCCACCCACGUGGAGACAGCUUACUGCAGCACUGUUGGUGUUCGGAGCUCUUCUGUGCCCUGGCUCCAUGCUUUCACCUACAC: 0.301
UGGUCAUAGAUCUUGAUUUCUCUGAAUCGUGAUGACCACACCCAGUCAUCUUCACAGCAUAAUUGCAGGUGGCAGUAAAGAGAGUGUGCUGGGUAAGGAGCAGUUGCUGG: 0.983
UGUAGUUUUUAUUAUGUAGUGACUUUUCAGAAUAAAAGCAGCUGAUGUGACUGACUGCAUCCGACUCGAGGCUGCCUGCUUACCAGGUGCAACUAUCUGCCAAAUGGUGG: 0.476
GAGCUGCAUAAUGUCCCUCUCUUGGCUAUUGACCAUGUGGUUCACGUACAAAACUCUGUAUAAGUUGAAGGAAAAUGUUCAUGUUCAUAUGUACUUGUUUGCUAUGACUA: 0.346

Set 3 — technique: protein-binding microarray; molecule type: double-stranded DNA, one strand shown; matrix: in vitro; tested at: 2200 nM top; notes: 60-bp whole probe; together with: salmon DNA 0.4 mg/ml; reference: random background probes; direction: higher = stronger binding; quantity: fitted relative affinity; constant ends, left off below: GCCTAGCAC … GTCTTGATTCGCTTGACGCTGCTG
Target: Interferon regulatory factor 7, full length, phosphomimetic (IRF7, Homo sapiens, UniProt Q92985, residues 1-503, S471D/S472D/S475D/S476D/S477D/S483D/S484D/S487D)
Construct (chain): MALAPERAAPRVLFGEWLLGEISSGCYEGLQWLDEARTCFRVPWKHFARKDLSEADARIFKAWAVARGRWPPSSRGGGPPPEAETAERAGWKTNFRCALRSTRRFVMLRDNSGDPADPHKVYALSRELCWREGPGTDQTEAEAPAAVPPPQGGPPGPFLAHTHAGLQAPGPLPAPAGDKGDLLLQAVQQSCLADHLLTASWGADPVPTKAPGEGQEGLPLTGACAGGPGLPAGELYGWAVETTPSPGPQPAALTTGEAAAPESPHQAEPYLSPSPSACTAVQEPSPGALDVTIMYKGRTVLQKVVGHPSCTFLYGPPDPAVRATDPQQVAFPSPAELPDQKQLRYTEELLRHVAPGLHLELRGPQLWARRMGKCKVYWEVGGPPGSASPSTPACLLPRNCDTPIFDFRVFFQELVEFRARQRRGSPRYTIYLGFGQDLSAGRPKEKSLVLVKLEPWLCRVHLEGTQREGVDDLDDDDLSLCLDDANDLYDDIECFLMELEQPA
GACGGTTTCCTCCTCCTGACGTGCTAG: 2.52 z-score
TTTACTAGGAGTTTTCAGTCCGTGCTA: 1.06 z-score
GACTATTTCGGGTATCGAGACGTGCTA: 2.34 z-score
TTAGGACTGGGGTTTCGGTGAGTGCTA: 0.074 z-score
GACGGTATCGGTCACGGGACGTGCTAG: -0.32 z-score
TCATGTTTGGTCCTGAAACTGTGCTAG: 1.59 z-score

Further values, each from its own experiment
PhoQ, residues 284 288 289 292 302 303 AANNSF
fold induction (PhoP, residues 12 14 15 18 19 LHSVQ (Escherichia coli, UniProt P23836); Sort-seq, measured: YFP reporter; E. coli; PhoQ-PhoP variant library, together with: 10 µM Mg2+; reference: high Mg2+ state, higher = stronger signaling): 2.52

A few entries again (set 3):
TTAGGACTGGGGTTTCGGTGAGTGCTA: 0.074 z-score
GACGGTATCGGTCACGGGACGTGCTAG: -0.32 z-score
